Measurements collected from several papers.
Numbered parts are unrelated; each lists some results of a single study.
Chain of UniProt P08912 (whole entry, looked up): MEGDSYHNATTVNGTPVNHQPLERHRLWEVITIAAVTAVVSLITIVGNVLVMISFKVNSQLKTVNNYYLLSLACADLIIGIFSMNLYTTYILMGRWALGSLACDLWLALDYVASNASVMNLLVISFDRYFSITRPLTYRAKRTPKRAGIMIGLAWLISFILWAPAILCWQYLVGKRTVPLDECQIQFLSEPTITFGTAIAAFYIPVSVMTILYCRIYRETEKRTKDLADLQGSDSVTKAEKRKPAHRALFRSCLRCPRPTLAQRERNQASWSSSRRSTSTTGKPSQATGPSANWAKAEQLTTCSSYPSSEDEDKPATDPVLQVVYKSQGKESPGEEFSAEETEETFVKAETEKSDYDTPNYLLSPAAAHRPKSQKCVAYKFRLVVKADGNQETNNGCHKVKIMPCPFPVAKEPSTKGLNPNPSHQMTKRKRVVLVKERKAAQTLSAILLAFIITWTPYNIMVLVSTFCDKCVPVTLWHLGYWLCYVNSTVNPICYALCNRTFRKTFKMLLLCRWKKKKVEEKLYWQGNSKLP
Chain of UniProt Q9HC98 (whole entry, looked up): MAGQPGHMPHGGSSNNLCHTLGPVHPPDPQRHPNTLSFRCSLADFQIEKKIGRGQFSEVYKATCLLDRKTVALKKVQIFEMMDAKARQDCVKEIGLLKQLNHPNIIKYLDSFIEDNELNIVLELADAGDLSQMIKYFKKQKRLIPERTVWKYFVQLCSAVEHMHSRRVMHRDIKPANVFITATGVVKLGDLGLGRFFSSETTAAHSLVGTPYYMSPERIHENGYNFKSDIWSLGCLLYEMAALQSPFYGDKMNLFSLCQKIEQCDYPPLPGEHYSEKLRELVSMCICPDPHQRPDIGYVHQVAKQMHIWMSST
Chain of UniProt Q9Y6M4 (whole entry, looked up): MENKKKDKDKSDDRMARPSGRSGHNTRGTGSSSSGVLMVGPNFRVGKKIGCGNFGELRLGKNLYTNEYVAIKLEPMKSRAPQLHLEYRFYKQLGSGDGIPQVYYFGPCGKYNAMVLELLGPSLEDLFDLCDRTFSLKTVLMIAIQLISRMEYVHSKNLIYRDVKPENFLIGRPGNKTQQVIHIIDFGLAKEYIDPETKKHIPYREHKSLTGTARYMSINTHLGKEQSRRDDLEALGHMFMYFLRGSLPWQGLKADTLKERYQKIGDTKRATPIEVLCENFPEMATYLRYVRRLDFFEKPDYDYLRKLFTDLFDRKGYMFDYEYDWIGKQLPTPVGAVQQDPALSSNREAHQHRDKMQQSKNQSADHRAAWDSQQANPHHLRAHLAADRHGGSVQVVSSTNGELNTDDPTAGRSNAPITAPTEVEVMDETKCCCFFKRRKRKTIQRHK
Chain of UniProt P25100 (whole entry, looked up): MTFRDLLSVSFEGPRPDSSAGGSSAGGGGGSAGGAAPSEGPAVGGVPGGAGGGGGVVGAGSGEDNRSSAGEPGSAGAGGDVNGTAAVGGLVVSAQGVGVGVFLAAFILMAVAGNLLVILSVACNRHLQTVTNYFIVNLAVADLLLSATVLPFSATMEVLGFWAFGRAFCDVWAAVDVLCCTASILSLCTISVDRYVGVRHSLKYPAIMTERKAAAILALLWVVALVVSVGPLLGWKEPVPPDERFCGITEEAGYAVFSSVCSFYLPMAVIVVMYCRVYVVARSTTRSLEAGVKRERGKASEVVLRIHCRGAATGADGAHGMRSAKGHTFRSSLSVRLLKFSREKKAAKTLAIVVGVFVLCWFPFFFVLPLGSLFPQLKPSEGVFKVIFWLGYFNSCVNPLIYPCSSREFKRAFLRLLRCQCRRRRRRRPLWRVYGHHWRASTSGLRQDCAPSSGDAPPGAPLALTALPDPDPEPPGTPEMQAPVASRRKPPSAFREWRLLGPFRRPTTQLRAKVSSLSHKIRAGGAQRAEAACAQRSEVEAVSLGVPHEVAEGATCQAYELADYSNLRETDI
Chain of UniProt Q5BJF2 (whole entry, looked up): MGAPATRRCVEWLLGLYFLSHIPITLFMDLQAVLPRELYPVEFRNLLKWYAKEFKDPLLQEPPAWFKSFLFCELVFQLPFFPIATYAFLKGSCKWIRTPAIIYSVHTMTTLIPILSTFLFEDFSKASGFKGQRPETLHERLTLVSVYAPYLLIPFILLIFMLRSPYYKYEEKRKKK
Chain of UniProt Q99558 (whole entry, looked up): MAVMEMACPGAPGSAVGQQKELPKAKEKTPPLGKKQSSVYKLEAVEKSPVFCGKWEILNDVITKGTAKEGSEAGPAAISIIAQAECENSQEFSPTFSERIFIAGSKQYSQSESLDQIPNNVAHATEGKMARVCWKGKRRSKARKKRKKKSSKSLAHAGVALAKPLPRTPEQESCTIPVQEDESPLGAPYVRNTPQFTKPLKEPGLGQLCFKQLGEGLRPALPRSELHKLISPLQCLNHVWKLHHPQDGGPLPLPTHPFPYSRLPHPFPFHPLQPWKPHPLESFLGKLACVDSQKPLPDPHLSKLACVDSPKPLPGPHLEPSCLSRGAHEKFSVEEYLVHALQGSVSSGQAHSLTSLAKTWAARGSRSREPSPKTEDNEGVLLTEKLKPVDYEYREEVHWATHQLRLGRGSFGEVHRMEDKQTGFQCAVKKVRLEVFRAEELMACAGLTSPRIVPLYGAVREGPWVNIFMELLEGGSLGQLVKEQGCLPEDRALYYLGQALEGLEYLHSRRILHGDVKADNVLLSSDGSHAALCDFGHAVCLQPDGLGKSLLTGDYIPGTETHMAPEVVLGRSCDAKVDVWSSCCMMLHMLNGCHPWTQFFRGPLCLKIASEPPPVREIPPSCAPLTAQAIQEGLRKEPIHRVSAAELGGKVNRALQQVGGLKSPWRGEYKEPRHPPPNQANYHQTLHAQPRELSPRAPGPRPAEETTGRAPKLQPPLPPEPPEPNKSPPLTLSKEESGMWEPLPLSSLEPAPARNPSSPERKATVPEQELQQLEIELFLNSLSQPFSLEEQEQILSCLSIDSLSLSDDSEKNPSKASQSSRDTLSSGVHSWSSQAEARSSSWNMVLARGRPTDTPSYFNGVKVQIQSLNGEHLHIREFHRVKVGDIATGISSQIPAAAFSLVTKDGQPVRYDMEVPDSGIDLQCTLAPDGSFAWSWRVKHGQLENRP
Chain of UniProt P30291 (whole entry, looked up): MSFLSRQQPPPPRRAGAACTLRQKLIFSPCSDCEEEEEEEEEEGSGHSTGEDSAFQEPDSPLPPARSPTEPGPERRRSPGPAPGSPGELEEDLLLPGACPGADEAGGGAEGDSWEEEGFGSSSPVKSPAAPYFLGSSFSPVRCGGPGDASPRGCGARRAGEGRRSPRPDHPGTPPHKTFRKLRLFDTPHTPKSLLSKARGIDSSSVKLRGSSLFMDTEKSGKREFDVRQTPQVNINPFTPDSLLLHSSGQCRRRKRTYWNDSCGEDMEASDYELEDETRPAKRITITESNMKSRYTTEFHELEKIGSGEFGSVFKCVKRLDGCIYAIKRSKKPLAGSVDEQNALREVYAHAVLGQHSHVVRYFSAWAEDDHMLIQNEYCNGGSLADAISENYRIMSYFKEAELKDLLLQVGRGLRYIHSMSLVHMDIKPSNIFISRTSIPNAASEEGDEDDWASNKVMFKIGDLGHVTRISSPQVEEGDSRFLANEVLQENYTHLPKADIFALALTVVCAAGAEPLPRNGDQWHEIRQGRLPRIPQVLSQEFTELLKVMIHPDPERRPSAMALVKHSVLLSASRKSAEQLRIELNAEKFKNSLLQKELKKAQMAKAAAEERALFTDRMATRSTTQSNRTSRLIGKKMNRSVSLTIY
Chain of UniProt P10398 (whole entry, looked up): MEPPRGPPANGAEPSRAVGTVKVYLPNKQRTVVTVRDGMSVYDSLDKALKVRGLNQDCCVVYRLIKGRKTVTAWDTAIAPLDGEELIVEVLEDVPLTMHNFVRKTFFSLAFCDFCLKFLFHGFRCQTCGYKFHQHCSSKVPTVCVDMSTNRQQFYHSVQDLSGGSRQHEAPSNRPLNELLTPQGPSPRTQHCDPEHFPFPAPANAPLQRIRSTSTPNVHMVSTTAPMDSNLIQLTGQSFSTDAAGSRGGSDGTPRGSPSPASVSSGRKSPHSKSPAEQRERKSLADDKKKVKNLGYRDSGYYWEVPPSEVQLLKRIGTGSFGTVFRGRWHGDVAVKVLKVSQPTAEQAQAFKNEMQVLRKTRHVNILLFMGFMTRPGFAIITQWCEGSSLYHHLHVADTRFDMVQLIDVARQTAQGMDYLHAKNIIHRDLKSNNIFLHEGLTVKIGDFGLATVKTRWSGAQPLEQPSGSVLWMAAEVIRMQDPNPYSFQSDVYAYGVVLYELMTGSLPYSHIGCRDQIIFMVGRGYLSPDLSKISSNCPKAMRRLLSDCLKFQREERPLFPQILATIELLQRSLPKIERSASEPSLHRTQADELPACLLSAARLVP
Chain of UniProt Q9UHD2 (whole entry, looked up): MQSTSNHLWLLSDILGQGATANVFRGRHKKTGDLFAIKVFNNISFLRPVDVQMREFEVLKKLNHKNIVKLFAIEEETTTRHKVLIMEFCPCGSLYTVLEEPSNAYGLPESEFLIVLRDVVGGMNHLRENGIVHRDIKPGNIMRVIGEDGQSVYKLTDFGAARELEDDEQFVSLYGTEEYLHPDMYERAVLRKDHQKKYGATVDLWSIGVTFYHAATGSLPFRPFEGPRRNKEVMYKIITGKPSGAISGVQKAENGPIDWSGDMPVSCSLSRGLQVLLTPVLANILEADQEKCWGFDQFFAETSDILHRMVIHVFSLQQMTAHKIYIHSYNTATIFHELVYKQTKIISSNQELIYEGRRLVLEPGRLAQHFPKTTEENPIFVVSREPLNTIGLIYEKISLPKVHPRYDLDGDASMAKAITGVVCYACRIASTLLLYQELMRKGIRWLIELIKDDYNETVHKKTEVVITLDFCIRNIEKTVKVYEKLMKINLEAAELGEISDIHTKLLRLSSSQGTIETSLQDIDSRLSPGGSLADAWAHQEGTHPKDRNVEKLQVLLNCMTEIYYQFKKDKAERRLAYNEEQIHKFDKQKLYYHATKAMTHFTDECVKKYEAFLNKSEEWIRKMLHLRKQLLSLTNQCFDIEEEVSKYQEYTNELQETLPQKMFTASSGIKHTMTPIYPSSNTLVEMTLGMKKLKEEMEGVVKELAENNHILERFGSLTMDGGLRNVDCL

Block 1
Target: RNA binding protein fox-1 homolog 2, RRM domain, GST-SBP tag (RBFOX2, Homo sapiens, UniProt O43251-10, residues 100-194)
Technique: RNA Bind-n-Seq
Form: RNA
Sample: in vitro
Concentration: 365 nM
Setting: natural RNA segment, single round, ends assumed
Relative to: no-protein control
Direction: higher = stronger binding
Residues (chain): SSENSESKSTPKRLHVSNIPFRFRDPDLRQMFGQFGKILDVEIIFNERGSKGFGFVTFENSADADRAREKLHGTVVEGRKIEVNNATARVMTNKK
| Strand | RBNS enrichment (R) |
| --- | --- |
| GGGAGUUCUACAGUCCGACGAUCUGGCAAUGAUUAAACCCAGCUUAGCAACGUGAGAAUUAUUUUUUUUUUUCUAAGAAGAAAAUUCAGAAGAAAAGUAACUGAGUUUUGUUACUGGUAAAAUGGAAAUACUUUGGAAUUCUCGGGUGCCAA | 0.447 |
| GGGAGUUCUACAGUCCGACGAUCGAAGCUGGUGUGAAAGGCUAGGAGGCAUUGUUUUCUAUUAUUCCUCGGUGAAGCCUUUUCCCAGAGCAUAUGUCUCCGGCAGGCAGUGUGGGUUCUUGCCAAGCAUCAGAUGGAAUUCUCGGGUGCCAA | 0.787 |
| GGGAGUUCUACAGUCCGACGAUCACCCAGAUUGUGUGCCCUGUGCCAGUGGGGGGGUUGAGGGUGGGACGGUGUCCGUGUUGUUGCUUUCCCACCCUGCAGCGCACUGGACUGAAGAGCUUCCCUCUUCCUACUGGAAUUCUCGGGUGCCAA | 0.651 |
| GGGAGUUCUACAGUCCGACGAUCAAAGUGAAAAGAGAUUCAACCAAGAGGACAGCUCUGGAGCAGAAAAAUACAUGUUUAUAGGAUGCGAUUGUUUCAACUUUCUUUUUCCAUUUUAAGAAGAUUCCAUUUCGUGGAAUUCUCGGGUGCCAA | 0.425 |
| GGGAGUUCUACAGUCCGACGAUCUGCCUUCCCUAGUAGUAGGGACUGACAGAAUACACUUAACACAAACCUCAAGCUUUACUGACUUCAAUUAUCUGUUUUUAAAGACGUAGAAGAUUUAUUUAAUUUGAUAUUGGAAUUCUCGGGUGCCAA | 0.323 |
| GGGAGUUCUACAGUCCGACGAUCUCUGCACCCCACCCCUCACCCUUGUGCAGGGACAACUCCUUGCCCUGUGUUUCUUGGCCUCUAGACUCUAACAGGCAGAGUCUAGAGUAAGUUUUAGGGUCUGGGCUGAGUGGAAUUCUCGGGUGCCAA | 0.346 |
| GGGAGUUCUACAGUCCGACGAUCUAGUGUGCCAGCACAGGCCAGACAUACUAGUGAGCCAGGCACAUCUGGCCUUGGGAAACUCAUCCUACAGGGGAAGGCCAGUUUUUUUCCCUUCAAUUCCUCAAGUCUGGUGGAAUUCUCGGGUGCCAA | 0.458 |
| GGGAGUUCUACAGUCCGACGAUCGUCAGUAUUUUUGUAAGGUUCCAUUUUGUAAAGAGAAUAAUAUUCAAAGACUUUUGUAGCAUACAAAGUGAAAACUUGUAUCUGCGAAACUAUACUUGUAUUAAAUGUGCUGGAAUUCUCGGGUGCCAA | 0.579 |

Block 2
SMILES: Nc1nc(Nc2ccc(S(N)(=O)=O)cc2)nn1C(=S)Nc1c(F)cccc1F
Effect on: enzyme activity
Mode: inhibitor
Concentration: 0.5 µM
Relative to: control
| target | remaining activity |
| --- | --- |
| Tyrosine-protein kinase Mer (MERTK, Homo sapiens, UniProt Q12866) | 14.8% |
| Serine/threonine-protein kinase ULK2 (ULK2, Homo sapiens, UniProt Q8IYT8) | 4.73% |
| Ribosomal protein S6 kinase alpha-2 (RPS6KA2, Homo sapiens, UniProt Q15349) | 2.08% |
| Casein kinase I isoform gamma-3 (CSNK1G3, Homo sapiens, UniProt Q9Y6M4) | 20.8% |
| Serine/threonine-protein kinase Nek6 (NEK6, Homo sapiens, UniProt Q9HC98) | 78.8% |
| Mitogen-activated protein kinase kinase kinase 5 (MAP3K5, Homo sapiens, UniProt Q99683) | 1.12% |
| Serine/threonine-protein kinase TBK1 (TBK1, Homo sapiens, UniProt Q9UHD2) | 10.3% |
| Casein kinase I isoform gamma-2 (CSNK1G2, Homo sapiens, UniProt P78368) | 14.8% |
| Wee1-like protein kinase (WEE1, Homo sapiens, UniProt P30291) | 100% |
| Serine/threonine-protein kinase A-Raf (ARAF, Homo sapiens, UniProt P10398) | 129% |
| Mitogen-activated protein kinase kinase kinase 14 (MAP3K14, Homo sapiens, UniProt Q99558) | 29.1% |
| Tyrosine-protein kinase FRK (FRK, Homo sapiens, UniProt P42685) | 70.6% |
| Angiopoietin-1 receptor (TEK, Homo sapiens, UniProt Q02763) | 5.06% |

Block 3
Target: PABPC1L2, full length, GST fusion (mouse, UniProt A0ABA7IW68)
Technique: RNAcompete
Form: RNA
Sample: in vitro
Concentration: 20 nM
Setting: 7-mer, probes averaged, single round
Relative to: mean of 7-mers
Direction: higher = stronger binding
Residues (chain): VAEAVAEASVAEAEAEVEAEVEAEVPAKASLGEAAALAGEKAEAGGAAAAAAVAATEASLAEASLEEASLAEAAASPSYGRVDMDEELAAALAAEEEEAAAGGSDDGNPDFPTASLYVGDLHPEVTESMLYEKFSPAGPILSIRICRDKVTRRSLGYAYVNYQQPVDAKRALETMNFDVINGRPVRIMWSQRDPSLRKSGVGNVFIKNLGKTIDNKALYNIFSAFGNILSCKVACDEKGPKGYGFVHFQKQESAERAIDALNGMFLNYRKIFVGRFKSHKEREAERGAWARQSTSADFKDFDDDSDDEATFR
| Strand | 7-mer Z-score |
| --- | --- |
| GCUUUAC | -0.22 |
| UCGGACA | 0.0261 |
| AACAAUA | 1.05 |
| GGUGCUA | -0.021 |
| UUUGGAA | -0.126 |
| AUUUCGG | -0.132 |
| UUUAGGC | 0.148 |
| CUCGAAG | -0.119 |

Block 4
Compound: CS(=O)(=O)c1cc(C2(NC(=O)c3cncc4c3cnn4-c3ccc(F)cc3)CC2)ccn1
Effect on: cell-free assay
Concentration: 10 µM
| target | inhibition [%] |
| --- | --- |
| Muscarinic acetylcholine receptor M5 (CHRM5, Homo sapiens, UniProt P08912) | 3.92 |
| Alpha-1D adrenergic receptor (ADRA1D, Homo sapiens, UniProt P25100) | -7.67 |
| Alpha-2B adrenergic receptor (ADRA2B, Homo sapiens, UniProt P18089) | 13.2 |
| Sigma intracellular receptor 2 (TMEM97, Homo sapiens, UniProt Q5BJF2) | 9.02 |

Excerpt of the above (block 2):
| target | remaining activity |
| --- | --- |
| Mitogen-activated protein kinase kinase kinase 5 (MAP3K5, Homo sapiens, UniProt Q99683) | 1.12% |
| Serine/threonine-protein kinase TBK1 (TBK1, Homo sapiens, UniProt Q9UHD2) | 10.3% |
